# Results from different studies.
# Lines come from different studies, so protocols differ. Values joined by “and” are separate records of one study, mostly repeats; a detail may differ. ± marks the error that the study gave.
Structure (SMILES),test,test system,conditions,tissue uptake
CCCC[C@H](NC(=O)CNC(=O)CNC(=O)CN1CCN(CC(=O)O)CCN(CC(=O)O)CC1)C(=O)N[C@H]1CC(=O)NCCCC[C@@H](C(N)=O)NC(=O)[C@H](Cc2c[nH]c3ccccc23)NC(=O)[C@H](CCCNC(=N)N)NC(=O)[C@@H](Cc2ccccc2)NC(=O)[C@H](Cc2c[nH]cn2)NC1=O [gallium-67 labelled],,"C57 mice, female, B16/F1 melanoma, intestines","intravenous, 0.037 MBq, 24 h",1.23 ± 0.35 %ID
NC12CNCCNCC(NCc3ccc(CNC(=O)CCCC(=O)NCc4ccc(-c5nncnn5)cc4)cc3)(CNCCNC1)CNCCNC2.[64Cu+2],,"athymic nude mice SW1222 xenograft, kidney","1 h post injection, 24 h accumulation interval, with: huA33-TCO pretargeting",3.08 %ID/g and 3.1 %ID/g
CN1C(=O)[C@@H](Cc2ccc(O)c(I)c2)NC(=O)CNC(=O)[C@H](Cc2ccc3ccccc3c2)NC(=O)[C@H](CCCNC(=N)N)NC(=O)[C@H]1CCCNC(=O)c1ccc(CNC(=O)CN2CCN(CC(=O)O)CCN(CC(=O)O)CCN(CC(=O)O)CC2)cc1 [lutetium-177 labelled],item: 177Lu radioactivity,"female CB-17 SCID mice, Daudi xenograft, small intestine","intravenous, 0.16 nmol per mouse, 1 h",0.9 ± 0.2 %ID/g
CC(C)[C@H](NC(=O)[C@@H]1CCCN1C(=O)[C@H](CCCNC(=N)N)NC(=O)[C@H](CS)NC(=O)[C@H](Cc1c[nH]c2ccccc12)NC(=O)[C@H](CCCNC(=N)N)NC(=O)[C@@H](Cc1ccccc1)NC(=O)[C@H](Cc1c[nH]cn1)NC(=O)[C@H](CCC(=O)O)NC(=O)[C@H](CS)NC(=O)[C@H](CS)NC(=O)[C@@H]1CC(=O)N[C@@H](CCCNC(=N)N)C(=O)NCC(=O)N[C@@H](CC(=O)O)C(=O)N[C@H](Cc2ccc(O)cc2)C(=O)N1)C(N)=O [technetium-99m labelled],,"C57 mice B16/F1 melanoma female, kidneys","iv, 0.037 MBq, 24 h",2.8 ± 0.84 %ID/g
O=C(NCC1OC2CCC=CCCC2O1)c1ccc(COCCOCCOCC[18F])cc1 (stereo not shown),,"female BALB/c nude mice, brain","intravenous, 15 min",2.6 ± 0.1 %ID/g
O=C([O-])c1cccc(CN(CCN(Cc2cn(Cc3ccccc3)nn2)Cc2cccc(C(=O)[O-])n2)Cc2cn(Cc3ccccc3)nn2)n1.[64Cu+2],,"healthy athymic nude mice, stomach","intravenous, 1 h",5.93 %ID/g
CCCC[C@H](NC(=O)CNC(=O)CNC(=O)CN1CCN(CC(=O)O)CCN(CC(=O)O)CCN(CC(=O)O)CC1)C(=O)N[C@H]1CC(=O)NCCCC[C@@H](C(N)=O)NC(=O)[C@H](Cc2c[nH]c3ccccc23)NC(=O)[C@H](CCCNC(=N)N)NC(=O)[C@@H](Cc2ccccc2)NC(=O)[C@H](Cc2c[nH]cn2)NC1=O [gallium-67 labelled],,"female C57 mice, B16/F1 melanoma, kidneys","intravenous, 0.037 MBq, 4 h",8.44 ± 0.11 %ID/g
O=C([O-])CN1CCN(CC(=O)[O-])CCN(CC(=O)NCCc2ccc3c(c2)C2C=CCC2C(c2cc4c(cc2Br)OCO4)N3)CCN(CC(=O)[O-])CC1.[111In+3] (stereo not shown),SPECT/CT imaging,"mice with Hec50 tumour xenograft, intestine",1 h,64.9 % ID
N=C(N)NCCC[C@H](NC(=O)CON=C[C@H](F)[C@@H](O)[C@H](O)[C@H](O)CO)C(=O)NCC(=O)N[C@@H](CC(=O)O)C(=O)O [fluorine-18 labelled],,"nude mice U-87 MG tumour, bone","intravenous, 0.5 h",0.29 ± 0.03 %ID/g
O=C([O-])CN1CCN(CC(=O)[O-])CCN(CC(=O)[O-])CCN(CC(=O)[O-])CC1.[64Cu+2],,"healthy athymic nude mice, skin","intravenous, 24 h",0.17 %ID/g
CCCC[C@@H]1NC(=O)[C@@H](NC(=O)[C@H](CCC(=O)O)NC(=O)CNC(=O)CN2CCN(CC(=O)O)CCN(CC(=O)O)CCN(CC(=O)O)CC2)CCCCNC(=O)C[C@@H](C(N)=O)NC(=O)[C@H](C(C)C)NC(=O)[C@@H]2CCCN2C(=O)[C@H](CCCNC(=N)N)NC(=O)CNC(=O)[C@H](Cc2c[nH]c3ccccc23)NC(=O)[C@H](CCCNC(=N)N)NC(=O)[C@@H](Cc2ccccc2)NC(=O)[C@H](Cc2c[nH]cn2)NC(=O)[C@H](CCC(=O)O)NC1=O [gallium-67 labelled],,"normal C57 mice, liver","intravenous, 0.037 MBq, 4 h",0.55 ± 0.14 %ID/g
CC(C)[C@H](NC(=O)[C@@H]1CCCN1C(=O)[C@H](CCCNC(=N)N)NC(=O)[C@H](CS)NC(=O)[C@H](Cc1c[nH]c2ccccc12)NC(=O)[C@H](CCCNC(=N)N)NC(=O)[C@@H](Cc1ccccc1)NC(=O)[C@H](Cc1c[nH]cn1)NC(=O)[C@H](CCC(=O)O)NC(=O)[C@H](CS)NC(=O)[C@H](CS)NC(=O)CNC(=O)[C@@H]1CC(=O)N[C@@H](CCCNC(=N)N)C(=O)NCC(=O)N[C@@H](CC(=O)O)C(=O)N[C@H](Cc2ccc(O)cc2)C(=O)N1)C(N)=O [technetium-99m labelled],,"female mice, B16/F1 melanoma, intestines","intravenous, dose not given, 2 h, with: 10 µg NDP-MSH co-injected",2.49 ± 1.1 %ID
CCCC[C@H](NC(=O)CN1CCC(NC(=O)CN2CCN(CC(=O)O)CCN(CC(=O)O)CCN(CC(=O)O)CC2)CC1)C(=O)N[C@H]1CC(=O)NCCCC[C@@H](C(N)=O)NC(=O)[C@H](Cc2c[nH]c3ccccc23)NC(=O)[C@H](CCCNC(=N)N)NC(=O)[C@@H](Cc2ccccc2)NC(=O)[C@H](Cc2c[nH]cn2)NC1=O [gallium-68 labelled],,"male C57BL/6J mice, B16-F10 tumours, pancreas","intravenous, 1 h, blocking study, with: 100 µg non-radioactive Ga-peptide",0.7 ± 0.5 %ID/g

# Some of these lines once more:
Structure (SMILES),test,test system,conditions,tissue uptake
NC12CNCCNCC(NCc3ccc(CNC(=O)CCCC(=O)NCc4ccc(-c5nncnn5)cc4)cc3)(CNCCNC1)CNCCNC2.[64Cu+2],,"athymic nude mice SW1222 xenograft, kidney","1 h post injection, 24 h accumulation interval, with: huA33-TCO pretargeting",3.08 %ID/g and 3.1 %ID/g
CN1C(=O)[C@@H](Cc2ccc(O)c(I)c2)NC(=O)CNC(=O)[C@H](Cc2ccc3ccccc3c2)NC(=O)[C@H](CCCNC(=N)N)NC(=O)[C@H]1CCCNC(=O)c1ccc(CNC(=O)CN2CCN(CC(=O)O)CCN(CC(=O)O)CCN(CC(=O)O)CC2)cc1 [lutetium-177 labelled],item: 177Lu radioactivity,"female CB-17 SCID mice, Daudi xenograft, small intestine","intravenous, 0.16 nmol per mouse, 1 h",0.9 ± 0.2 %ID/g
